Measured values pooled from the literature.
Each numbered part is a random draw from the data of one study; scales do not carry over between parts.

Set 1 — method: protein-binding microarray; form: double-stranded DNA, one strand shown; medium: in vitro; concentration: 250 nM; notes: 60-bp whole probe; with: salmon DNA 0.4 mg/ml; baseline: random background probes; direction: higher = stronger binding; shared flanks, not repeated: GCCTAGCAC … GTCTTGATTCGCTTGACGCTGCTG
Target: Interferon regulatory factor 5, full length, phosphomimetic (IRF5, Homo sapiens, UniProt Q13568-2, residues 1-514, K96S/S451D/S453D/S456D/S462D)
| Sequence | log fluorescence [z-score] |
| --- | --- |
| CTCTTGATCCCGAACTGGCCGTGCTAG | -0.116 |
| TCATGTCTCAGAGTCCTACTGTGCTAG | -0.207 |
| TTAGAACTGAGTTTCGATAAGTGCTAG | 8.78 |
| AACGGTTTCGACTATCGGGACGTGCTA | 7.92 |
| TCAACTCTTCTTTTGCTACTGTGCTAG | 0.832 |
| TTAGATTACGGGTATCGATTAGTGCTA | 3.56 |

Set 2 — method: protein binding microarray; form: double-stranded DNA, one strand shown; medium: in vitro; concentration: not given; baseline: not given; direction: higher = stronger binding
Target: Histone acetyltransferase KAT6A, winged helix 1, GST fusion (KAT6A, Homo sapiens, UniProt Q92794, residues 1-85)
Notes: 8-mer, flanks averaged, mean of 2 arrays, mostly near background
Target sequence (chain): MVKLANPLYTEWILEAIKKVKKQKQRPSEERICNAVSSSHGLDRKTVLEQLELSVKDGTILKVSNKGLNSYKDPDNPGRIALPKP
| Sequence | E-score |
| --- | --- |
| CATATTCC | -0.0564 |
| AGGGGATG | -0.298 |
| CACGCCTA | 0.121 |
| GCCTATGA | 0.0728 |
| GCGCGTCA | 0.324 |

Set 3 — method: universal PBM; form: double-stranded DNA, one strand shown; medium: in vitro; concentration: 600 nM; direction: higher = stronger binding
Target: Sal-like protein 4, full length isoform A (SALL4, Homo sapiens, UniProt Q9UJQ4, residues 1-1053)
Chain of UniProt Q9UJQ4 (whole entry, looked up): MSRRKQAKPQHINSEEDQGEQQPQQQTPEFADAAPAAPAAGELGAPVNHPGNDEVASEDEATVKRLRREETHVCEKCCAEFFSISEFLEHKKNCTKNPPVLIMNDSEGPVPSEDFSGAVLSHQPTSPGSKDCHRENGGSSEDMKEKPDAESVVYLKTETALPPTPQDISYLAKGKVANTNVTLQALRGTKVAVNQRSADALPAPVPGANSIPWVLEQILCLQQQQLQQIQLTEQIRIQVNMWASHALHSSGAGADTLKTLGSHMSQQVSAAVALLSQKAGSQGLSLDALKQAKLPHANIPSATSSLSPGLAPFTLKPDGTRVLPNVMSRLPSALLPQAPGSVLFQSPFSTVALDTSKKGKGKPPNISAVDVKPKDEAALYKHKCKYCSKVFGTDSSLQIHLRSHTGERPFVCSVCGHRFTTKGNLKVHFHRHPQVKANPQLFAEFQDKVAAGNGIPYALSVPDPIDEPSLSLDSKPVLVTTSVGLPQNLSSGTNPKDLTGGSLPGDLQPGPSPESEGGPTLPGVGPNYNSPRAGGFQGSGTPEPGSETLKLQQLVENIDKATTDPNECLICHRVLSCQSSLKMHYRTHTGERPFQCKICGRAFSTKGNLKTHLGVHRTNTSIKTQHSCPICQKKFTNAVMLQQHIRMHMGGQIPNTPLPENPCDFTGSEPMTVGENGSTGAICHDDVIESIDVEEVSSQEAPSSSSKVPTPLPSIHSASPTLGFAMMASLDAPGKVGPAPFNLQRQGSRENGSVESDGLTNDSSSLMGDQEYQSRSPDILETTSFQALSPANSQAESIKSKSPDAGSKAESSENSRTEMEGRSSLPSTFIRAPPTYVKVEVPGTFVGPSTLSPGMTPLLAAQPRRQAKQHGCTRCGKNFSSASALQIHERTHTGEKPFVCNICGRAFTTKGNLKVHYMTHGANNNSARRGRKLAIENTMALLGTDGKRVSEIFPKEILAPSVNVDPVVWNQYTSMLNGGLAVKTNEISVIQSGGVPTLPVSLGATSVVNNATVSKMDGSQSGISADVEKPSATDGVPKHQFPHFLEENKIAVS
Notes: 8-mer, flanks averaged, mean of replicates
| Sequence | E-score |
| --- | --- |
| TATTGGGA | 0.279 |
| ATTCCTAA | 0.158 |
| ACAAGCCT | -0.0315 |
| GTCGCCGA | -0.238 |
| GCGCGAAC | -0.289 |
| GTTCCACA | -0.129 |
| CCGTTGGA | -0.278 |

Mixed results
| Molecule | target | test | system | setting | scale | measurement | value |
| --- | --- | --- | --- | --- | --- | --- | --- |
| PhoQ, residues 284 288 289 292 302 303 SACGEM | PhoP, residues 12 14 15 18 19 NYFTV (Escherichia coli, UniProt P23836) | Sort-seq, measured: YFP reporter | E. coli | PhoQ-PhoP variant library, with: 10 µM Mg2+ | baseline: high Mg2+ state, higher = stronger signaling | fold induction | 1.42 |

Some of these lines once more (set 1):
| Sequence | log fluorescence [z-score] |
| --- | --- |
| CTCTTGATCCCGAACTGGCCGTGCTAG | -0.116 |
| TCATGTCTCAGAGTCCTACTGTGCTAG | -0.207 |
| TTAGAACTGAGTTTCGATAAGTGCTAG | 8.78 |
